Published values gathered from unrelated publications.
Numbered parts are unrelated; each lists some results of a single study. Values joined by “and” are separate records of one study, mostly repeats; a detail may differ.
Chain of UniProt Q8TBX8 (whole entry, looked up): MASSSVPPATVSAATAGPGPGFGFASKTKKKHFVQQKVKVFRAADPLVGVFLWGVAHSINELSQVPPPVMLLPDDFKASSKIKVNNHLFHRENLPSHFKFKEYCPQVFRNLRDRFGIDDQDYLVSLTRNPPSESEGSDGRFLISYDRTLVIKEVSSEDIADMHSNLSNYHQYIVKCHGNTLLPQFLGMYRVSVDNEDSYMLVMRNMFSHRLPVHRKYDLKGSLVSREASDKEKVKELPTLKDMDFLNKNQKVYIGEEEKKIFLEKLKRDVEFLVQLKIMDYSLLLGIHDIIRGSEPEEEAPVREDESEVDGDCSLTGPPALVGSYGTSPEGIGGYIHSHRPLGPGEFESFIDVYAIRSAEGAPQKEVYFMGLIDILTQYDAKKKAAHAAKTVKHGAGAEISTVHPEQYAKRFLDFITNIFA
Chain of UniProt O14920 (whole entry, looked up): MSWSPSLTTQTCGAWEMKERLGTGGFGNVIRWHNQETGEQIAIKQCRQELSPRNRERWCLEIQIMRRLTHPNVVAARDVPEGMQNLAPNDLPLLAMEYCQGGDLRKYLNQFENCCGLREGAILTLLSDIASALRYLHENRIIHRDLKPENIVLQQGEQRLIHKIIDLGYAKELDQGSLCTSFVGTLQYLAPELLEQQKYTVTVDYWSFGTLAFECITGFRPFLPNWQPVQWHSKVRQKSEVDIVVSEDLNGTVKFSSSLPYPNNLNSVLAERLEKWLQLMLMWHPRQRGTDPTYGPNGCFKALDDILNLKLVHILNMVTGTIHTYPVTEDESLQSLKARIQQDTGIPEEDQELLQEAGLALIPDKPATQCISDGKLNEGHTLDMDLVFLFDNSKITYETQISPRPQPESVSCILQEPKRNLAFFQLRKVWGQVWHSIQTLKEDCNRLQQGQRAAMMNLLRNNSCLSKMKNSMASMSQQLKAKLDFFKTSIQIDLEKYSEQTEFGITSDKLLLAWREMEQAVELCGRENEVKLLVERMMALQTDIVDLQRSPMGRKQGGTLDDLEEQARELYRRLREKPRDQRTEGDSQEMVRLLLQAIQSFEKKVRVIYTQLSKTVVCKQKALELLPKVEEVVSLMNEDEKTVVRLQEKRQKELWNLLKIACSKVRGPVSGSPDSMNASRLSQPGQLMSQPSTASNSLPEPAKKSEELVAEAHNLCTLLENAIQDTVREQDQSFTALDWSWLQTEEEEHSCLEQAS

Block 1 — effect on: enzyme activity; mode: inhibitor; concentration: 0.5 µM; baseline: control
Target: Homeodomain-interacting protein kinase 1 (HIPK1, Homo sapiens, UniProt Q86Z02)
Chain of UniProt Q86Z02 (whole entry, looked up): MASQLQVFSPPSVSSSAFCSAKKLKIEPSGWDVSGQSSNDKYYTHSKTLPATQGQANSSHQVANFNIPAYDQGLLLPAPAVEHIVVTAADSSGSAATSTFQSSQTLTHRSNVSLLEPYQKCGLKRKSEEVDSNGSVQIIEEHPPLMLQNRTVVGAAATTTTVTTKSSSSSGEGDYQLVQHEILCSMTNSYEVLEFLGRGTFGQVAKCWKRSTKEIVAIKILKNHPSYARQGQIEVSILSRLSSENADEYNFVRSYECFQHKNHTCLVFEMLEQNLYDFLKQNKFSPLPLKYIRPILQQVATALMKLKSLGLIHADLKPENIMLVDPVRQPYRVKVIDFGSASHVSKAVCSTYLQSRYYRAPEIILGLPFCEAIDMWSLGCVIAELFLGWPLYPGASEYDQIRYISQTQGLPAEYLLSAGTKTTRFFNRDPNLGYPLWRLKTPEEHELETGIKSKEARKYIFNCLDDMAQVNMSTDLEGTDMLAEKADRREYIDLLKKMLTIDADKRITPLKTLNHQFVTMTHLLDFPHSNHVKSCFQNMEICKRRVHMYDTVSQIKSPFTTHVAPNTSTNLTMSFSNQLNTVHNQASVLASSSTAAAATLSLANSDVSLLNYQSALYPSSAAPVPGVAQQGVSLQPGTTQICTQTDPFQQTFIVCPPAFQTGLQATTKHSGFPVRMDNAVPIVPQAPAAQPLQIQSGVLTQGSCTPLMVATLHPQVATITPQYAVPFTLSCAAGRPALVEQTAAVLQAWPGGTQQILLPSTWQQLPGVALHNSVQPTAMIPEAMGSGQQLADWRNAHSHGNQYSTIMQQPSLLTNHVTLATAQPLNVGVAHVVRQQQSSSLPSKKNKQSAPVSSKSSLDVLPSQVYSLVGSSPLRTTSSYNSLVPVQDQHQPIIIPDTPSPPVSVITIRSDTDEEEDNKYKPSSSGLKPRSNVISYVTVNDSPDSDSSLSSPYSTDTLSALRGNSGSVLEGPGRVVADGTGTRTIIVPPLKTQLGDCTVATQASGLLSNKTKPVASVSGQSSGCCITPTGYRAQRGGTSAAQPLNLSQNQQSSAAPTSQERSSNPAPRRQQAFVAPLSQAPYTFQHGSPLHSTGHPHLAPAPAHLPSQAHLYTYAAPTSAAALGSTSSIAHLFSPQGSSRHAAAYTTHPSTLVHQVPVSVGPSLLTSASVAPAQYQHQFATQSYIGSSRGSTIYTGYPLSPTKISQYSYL
For `N#CC(c1ccnc(NCCc2cccnc2)n1)c1nc2ccccc2s1` (stereo not shown), the remaining activity was 109%.
`CC(C)N(CCC(=O)c1ccc2ccccc2c1)Cc1ccccc1` gave a remaining activity of 106%.
For `CCCCc1c(-c2ccc(O)cc2)[nH]c2nccnc12`, the remaining activity was 97.7%.
`N#C/C(=C(/N)SC1C=CC=CC1)c1cccc(C(O)c2ccncc2)c1` (stereo not shown) has a remaining activity of 112%.
`NC(=O)c1ccc(-c2nc(-c3ccc4c(c3)OCCO4)c(-c3ccccn3)[nH]2)cc1` gave a remaining activity of 101%.
The remaining activity of `O=C1c2ccccc2-c2nc3nnnn3nc21` is reported as 99.3%.
With `CCN(CC)CCCCN1c2ccccc2Oc2ccc(Cl)cc21` the remaining activity was 106%.
`Nc1nc(Nc2ccc(S(N)(=O)=O)cc2)nn1C(=S)Nc1c(F)cccc1F` has a remaining activity of 105%.
The remaining activity of `O=C(c1ccccc1)c1ccc(N2CCOCC2)cc1O` is reported as 104%.
With `Clc1ccc(Nc2nnc(Cc3ccncc3)c3ccccc23)cc1` the remaining activity was 99.2%.
The remaining activity of `CC(C)(C)c1nc2c3cc[nH]c(=O)c3c3cc(F)ccc3c2[nH]1` is reported as 88.7%.

Block 2 — technique: competition with immobilised ligand; concentration: 1 µM
Compound: O=S(=O)(NC1CCC(c2cc(F)ccc2F)(S(=O)(=O)c2ccc(Cl)cc2)CC1)C(F)(F)F (stereo not shown)
It gave 95% for remaining binding (TRPM6 (Homo sapiens, UniProt Q9BX84); cell-free assay).
The remaining binding was 100% (Mast/stem cell growth factor receptor Kit, autoinhibited (KIT, Homo sapiens, UniProt P10721); cell-free assay).
PIP5K1C (Homo sapiens, UniProt O60331); cell-free assay — remaining binding: 87%.
The remaining binding was 100% (MAP3K12 (Homo sapiens, UniProt Q12852); cell-free assay).
It gave 100% for remaining binding (DCLK1 (Homo sapiens, UniProt O15075); cell-free assay).
The remaining binding was 100% (CAMK2G (Homo sapiens, UniProt Q13555); cell-free assay).
It gave 100% for remaining binding (PIK3C2G (Homo sapiens, UniProt O75747); cell-free assay).
For COQ8A (Homo sapiens, UniProt Q8NI60); cell-free assay: remaining binding read 99%.
The remaining binding was 100% (FLT3 (Homo sapiens, UniProt P36888, F691L/ITD); cell-free assay).
It gave 93% for remaining binding (IKBKB (Homo sapiens, UniProt O14920); cell-free assay).
It gave 52% for remaining binding (PRKCE (Homo sapiens, UniProt Q02156); cell-free assay).
PIP4K2C (Homo sapiens, UniProt Q8TBX8); cell-free assay — remaining binding: 100%.
It gave 74% for remaining binding (HIPK4 (Homo sapiens, UniProt Q8NE63); cell-free assay).
The remaining binding was 100% (SLK (Homo sapiens, UniProt Q9H2G2); cell-free assay).
For CIT (Homo sapiens, UniProt O14578); binding: remaining binding read 0%.
The remaining binding was 90% (FGFR3 (Homo sapiens, UniProt P22607); cell-free assay).
For MAK (Homo sapiens, UniProt P20794); cell-free assay: remaining binding read 100%.
It gave 100% for remaining binding (MUSK (Homo sapiens, UniProt O15146); cell-free assay).
PLK4 (Homo sapiens, UniProt O00444); cell-free assay — remaining binding: 100%.

Block 3 — effect on: enzyme activity; mode: inhibitor; concentration: 77 µM; baseline: untreated
Target: DNA polymerase theta, ATPase domain (POLQ, Homo sapiens, UniProt O75417)
Chain of UniProt O75417 (whole entry, unmodified, looked up): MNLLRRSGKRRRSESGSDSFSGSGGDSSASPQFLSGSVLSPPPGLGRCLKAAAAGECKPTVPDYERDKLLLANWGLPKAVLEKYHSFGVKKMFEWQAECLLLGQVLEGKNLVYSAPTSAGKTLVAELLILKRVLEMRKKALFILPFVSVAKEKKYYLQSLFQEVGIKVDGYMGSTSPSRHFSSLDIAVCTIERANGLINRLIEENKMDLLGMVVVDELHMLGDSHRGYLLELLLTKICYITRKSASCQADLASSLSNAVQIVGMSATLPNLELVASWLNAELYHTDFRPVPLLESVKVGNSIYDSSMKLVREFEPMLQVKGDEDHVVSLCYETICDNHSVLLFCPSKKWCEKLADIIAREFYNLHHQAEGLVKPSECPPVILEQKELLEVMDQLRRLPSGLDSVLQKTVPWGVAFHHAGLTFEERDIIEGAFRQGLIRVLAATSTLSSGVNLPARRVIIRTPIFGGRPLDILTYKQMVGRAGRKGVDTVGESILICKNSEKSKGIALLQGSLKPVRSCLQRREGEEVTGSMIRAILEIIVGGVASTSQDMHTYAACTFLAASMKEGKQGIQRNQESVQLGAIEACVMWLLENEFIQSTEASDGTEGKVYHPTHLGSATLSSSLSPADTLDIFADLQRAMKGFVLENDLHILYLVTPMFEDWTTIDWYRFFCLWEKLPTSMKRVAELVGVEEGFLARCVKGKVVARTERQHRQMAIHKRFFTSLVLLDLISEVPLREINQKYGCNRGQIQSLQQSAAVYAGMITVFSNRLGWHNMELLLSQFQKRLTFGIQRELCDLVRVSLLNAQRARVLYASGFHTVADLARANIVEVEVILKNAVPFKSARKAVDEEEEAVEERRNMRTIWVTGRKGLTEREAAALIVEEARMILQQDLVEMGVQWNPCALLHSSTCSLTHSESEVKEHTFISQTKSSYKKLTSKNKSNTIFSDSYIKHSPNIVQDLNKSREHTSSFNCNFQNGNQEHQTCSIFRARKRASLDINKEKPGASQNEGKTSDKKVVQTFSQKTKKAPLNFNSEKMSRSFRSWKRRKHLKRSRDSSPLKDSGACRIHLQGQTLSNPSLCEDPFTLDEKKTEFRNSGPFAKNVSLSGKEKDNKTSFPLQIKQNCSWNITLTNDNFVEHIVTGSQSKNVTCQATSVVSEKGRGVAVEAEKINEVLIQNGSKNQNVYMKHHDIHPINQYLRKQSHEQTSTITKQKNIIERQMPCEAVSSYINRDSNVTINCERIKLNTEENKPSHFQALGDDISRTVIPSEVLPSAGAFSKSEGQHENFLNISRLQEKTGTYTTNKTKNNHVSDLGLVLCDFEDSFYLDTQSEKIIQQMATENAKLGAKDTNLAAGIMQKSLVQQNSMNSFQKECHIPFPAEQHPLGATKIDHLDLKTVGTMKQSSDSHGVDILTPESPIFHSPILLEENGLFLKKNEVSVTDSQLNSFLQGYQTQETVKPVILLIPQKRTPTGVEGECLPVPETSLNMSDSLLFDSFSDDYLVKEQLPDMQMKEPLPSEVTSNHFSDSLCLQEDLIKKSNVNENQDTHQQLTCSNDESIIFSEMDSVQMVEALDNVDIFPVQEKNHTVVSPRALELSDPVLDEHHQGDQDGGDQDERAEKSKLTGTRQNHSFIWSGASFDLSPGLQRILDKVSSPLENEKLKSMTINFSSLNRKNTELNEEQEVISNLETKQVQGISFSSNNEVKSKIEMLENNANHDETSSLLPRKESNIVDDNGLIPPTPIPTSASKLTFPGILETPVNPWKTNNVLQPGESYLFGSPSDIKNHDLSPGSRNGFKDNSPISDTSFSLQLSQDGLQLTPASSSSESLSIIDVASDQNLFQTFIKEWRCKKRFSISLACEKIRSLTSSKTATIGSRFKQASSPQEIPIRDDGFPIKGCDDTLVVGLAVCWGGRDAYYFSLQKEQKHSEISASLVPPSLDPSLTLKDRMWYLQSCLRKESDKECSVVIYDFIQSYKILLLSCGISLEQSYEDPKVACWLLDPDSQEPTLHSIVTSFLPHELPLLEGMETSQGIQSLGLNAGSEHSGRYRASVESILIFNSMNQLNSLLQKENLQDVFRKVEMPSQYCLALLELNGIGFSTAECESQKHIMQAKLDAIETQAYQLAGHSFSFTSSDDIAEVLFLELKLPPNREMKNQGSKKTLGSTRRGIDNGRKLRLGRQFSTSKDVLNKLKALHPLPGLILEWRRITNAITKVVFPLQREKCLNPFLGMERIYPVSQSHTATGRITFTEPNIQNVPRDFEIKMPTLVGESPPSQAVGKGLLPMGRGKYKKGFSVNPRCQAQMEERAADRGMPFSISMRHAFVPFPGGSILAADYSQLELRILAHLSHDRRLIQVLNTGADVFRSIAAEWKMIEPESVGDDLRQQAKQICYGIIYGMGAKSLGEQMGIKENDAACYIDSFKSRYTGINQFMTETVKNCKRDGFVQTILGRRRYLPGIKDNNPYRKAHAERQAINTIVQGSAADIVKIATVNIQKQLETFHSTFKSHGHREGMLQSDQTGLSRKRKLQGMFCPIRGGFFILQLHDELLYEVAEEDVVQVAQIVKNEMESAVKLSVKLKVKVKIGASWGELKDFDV
The remaining activity of `COC1=C(OC)C(=O)c2ccccc2C1=O` is reported as 80%.
`CCCCCCCCN[C@@H](C)[C@H](O)c1ccc(SC(C)C)cc1` (racemic) has a remaining activity of 96.5%.
`O=C(c1cc(Cc2n[nH]c(=O)c3ccccc23)ccc1F)N1CCN(C(=O)C2CC2)CC1` gave a remaining activity of 102%.
`COc1cc2c(c(OC)c1OC)-c1ccc(OC)c(=O)cc1[C@@H](NC(C)=O)CC2` gave a remaining activity of 98% and 101%.
The remaining activity of `CCCCC(F)(F)[C@@]1(O)CC[C@H]2[C@@H](CC(=O)[C@@H]2CCCCCCC(=O)O)O1` is reported as 102%.
`CC(O)(P(=O)(O)O)P(=O)(O)O` gave a remaining activity of 100%.
`COc1ccc(Br)cc1S(=O)(=O)NC(=O)/C=C/c1ccccc1Cc1ccc2ccccc2c1` has a remaining activity of 86.9%.
The remaining activity of `COc1cc(C(=O)NCc2ccc(OCCN(C)C)cc2)cc(OC)c1OC` is reported as 96.5%.
With `COc1c(O[C@@H]2O[C@H](CO)[C@@H](O)[C@H](O)[C@H]2O)cc2c(c1OC)-c1ccc(SC)c(=O)cc1[C@@H](NC(C)=O)CC2` the remaining activity was 100%.
`Oc1c(Br)cc(Br)c2cccnc12` gave a remaining activity of 107%.
The remaining activity of `Cc1cc(NC(=O)Nc2ccc(N(C)C)cc2)c2cc(F)cc(F)c2n1` is reported as 77.8%.
For `CC(C)Oc1ccc(C(=O)N[C@H](CNC(=O)CN(C)C)Cc2ccc(-c3cn4cccc([C@H](C)O)c4n3)cc2)cc1Cl`, the remaining activity was 83%.
With `CN(C)[C@@H]1C(O)=C(C(N)=O)C(=O)[C@@]2(O)C(O)=C3C(=O)c4c(O)ccc(Cl)c4[C@@](C)(O)[C@H]3C[C@@H]12` the remaining activity was 99%.

Block 4 — species: mouse; sample: microsomes or S9; concentration: 2 µM; time: 0.5 h
With `CC1(C)CC(NC(=O)c2cccc(Br)c2)CC(C)(C)N1` the remaining compound was 0.12%.
The remaining compound of `Cn1c(=O)oc2cc(S(=O)(=O)N3CCC4(CC3)Nc3ccccc3-n3cccc34)ccc21` is reported as > 99.9%.
With `N#Cc1ccc(C(=O)N2CCC(N(Cc3ccccc3)C(=O)c3ccc(C#N)[nH]3)C2)[nH]1` (stereo not shown) the remaining compound was 55.1%.
The remaining compound of `c1ccc(-c2ccc3ccnc(N4CCCCC4)c3c2)cc1` is reported as 0.0867%.
The remaining compound of `Cc1[nH]c(=O)c2ccccc2c1C(=O)OC(C)(C)C` is reported as 92.4%.
`COc1ccc(-c2cc(-c3nc4c5c(ncn4n3)CCC5)n[nH]2)cc1` has a remaining compound of 24.3%.
`CC(Oc1cc(-n2nc3c(c2Cl)CCCC3)c(F)cc1Cl)C(C)(C)O` (stereo not shown) gave a remaining compound of 26.3%.
`c1nc2nc[nH]c(N3CCN(Cc4ccc5c(c4)OCO5)CC3)c-2n1` has a remaining compound of 47.2%.
`CNC(=O)Nc1ccc(C)n(CC(=O)NCCC(C)C)c1=O` has a remaining compound of 52.1%.

Repeated from above (block 1):
For `CCCCc1c(-c2ccc(O)cc2)[nH]c2nccnc12`, the remaining activity was 97.7%.
For `N#CC(c1ccnc(NCCc2cccnc2)n1)c1nc2ccccc2s1` (stereo not shown), the remaining activity was 109%.
`CC(C)N(CCC(=O)c1ccc2ccccc2c1)Cc1ccccc1` gave a remaining activity of 106%.
The remaining activity of `O=C1c2ccccc2-c2nc3nnnn3nc21` is reported as 99.3%.
`Nc1nc(Nc2ccc(S(N)(=O)=O)cc2)nn1C(=S)Nc1c(F)cccc1F` has a remaining activity of 105%.
With `CCN(CC)CCCCN1c2ccccc2Oc2ccc(Cl)cc21` the remaining activity was 106%.
The remaining activity of `O=C(c1ccccc1)c1ccc(N2CCOCC2)cc1O` is reported as 104%.
